Assay results of several laboratories.
Every numbered part comes from another study and shows a few of its results, in no order. Substitutions count along the parent as printed.

Set 1
Target: CCND1, cyclin fold, Cln2 fusion (human)
Method: yeast growth competition, sequencing
Sample: yeast
Setting: strong parent motif
Reference: not given
Reading: higher = stronger binding
Starting sequence: SCAPER docking peptide (human); SNARRSLNFGGST
Substitution | normalised enrichment score
SNRRRSLNFGGST [A3R] | 0.0152
FNARRSLNFGGST [S1F] | 1.23
SNARRSHNFGGST [L7H] | 0.33
SNARRSLNFGGSY [T13Y] | 0.653
SQARRSLNFGGST [N2Q] | 1.03
SNQRRSLNFGGST [A3Q] | -0.397
SNARRELNFGGST [S6E] | 1.59
SNARRSLDFGGST [N8D] | 1.54
VNARRSLNFGGST [S1V] | 0.624
SNARDSLNFGGST [R5D] | 0.486
RNARRSLNFGGST [S1R] | 0.142
LNARRSLNFGGST [S1L] | 0.409
SNAWRSLNFGGST [R4W] | 0.386
SNARRSLNFGKST [G11K] | 0.863
SNARRSLNFGAST [G11A] | 1.01
SNARRSLNFGGSM [T13M] | 0.996
SNAGRSLNFGGST [R4G] | -0.0532
SNARRSLLFGGST [N8L] | -0.0844
SNARRHLNFGGST [S6H] | 1.64
SNARRSLSFGGST [N8S] | 1.74
SCARRSLNFGGST [N2C] | 0.802
SNNRRSLNFGGST [A3N] | 0.71
SNIRRSLNFGGST [A3I] | 0.339
SNARRSCNFGGST [L7C] | 0.389
SNARRSLNFTGST [G10T] | 0.944

Set 2
Target: Histone acetyltransferase KAT6A, winged helix 2, GST fusion (KAT6A, Homo sapiens, UniProt Q92794, residues 85-181)
Method: protein binding microarray
Form: double-stranded DNA, one strand shown
Sample: in vitro
Tested at: not given
Setting: 8-mer, flanks averaged, mean of 2 arrays, mostly near background
Reference: not given
Reading: higher = stronger binding
Target sequence (chain): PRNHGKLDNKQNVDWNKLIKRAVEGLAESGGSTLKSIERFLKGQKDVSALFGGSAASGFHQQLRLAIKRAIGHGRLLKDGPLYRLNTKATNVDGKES
Sequence | E-score
CCTGTCCA | -0.275
GAGAGCTA | -0.127
AAACGCGT | -0.104
TACGTGCA | -0.282
GCGTAAAC | 0.118
CCTACCTC | -0.0117
AAGGATTC | -0.0167
AGAGCCCA | -0.00551
ATTCAGGA | -0.0276
GCAGGTCA | -0.00266
CGTAGTGC | 0.164
ACGGAACG | -0.0144
AAGTCGTG | -0.0748
AGATGGAA | 0.033
ACTGCATG | 0.067
TGGGCGAA | 0.202
GCTGAAGA | -0.0352
CGTGGTGC | 0.0409
GTAGAATA | -0.0511
CAACAGGC | 0.082
AAGGTTCC | 0.028
AGTTCGCC | 0.0626
CACCATGC | 0.111

Set 3
Target: Centromere-binding protein 1, full length, N-terminal tag (CBF1, Saccharomyces cerevisiae, UniProt P17106, residues 1-351)
Chain of UniProt P17106 (whole entry, looked up): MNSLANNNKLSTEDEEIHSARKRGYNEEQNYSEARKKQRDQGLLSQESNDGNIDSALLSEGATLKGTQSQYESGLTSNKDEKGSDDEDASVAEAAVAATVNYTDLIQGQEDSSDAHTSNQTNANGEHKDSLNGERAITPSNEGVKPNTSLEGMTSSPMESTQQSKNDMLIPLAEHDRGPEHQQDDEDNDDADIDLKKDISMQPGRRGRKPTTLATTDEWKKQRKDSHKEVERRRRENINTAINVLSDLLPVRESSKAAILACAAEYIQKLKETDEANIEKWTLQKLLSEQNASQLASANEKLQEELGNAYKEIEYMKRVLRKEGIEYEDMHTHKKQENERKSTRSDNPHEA
Method: protein-binding microarray
Form: double-stranded DNA, one strand shown
Sample: in vitro
Tested at: 0.8 µM
Setting: whole 60-bp probe, no competitor
Reading: higher = stronger binding
Sequence | fluorescence intensity [a.u.]
CTAGTTTGTCAAAAGCACGAGCGCGATGAGAATTTCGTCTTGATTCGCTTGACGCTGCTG | 644
CTACACGATAGATTACAGCTGACCAACTTAGAATTCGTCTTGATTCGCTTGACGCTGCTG | 600
GAATGCTCTCTTCGTGTCATTCCTTATAGCATATAGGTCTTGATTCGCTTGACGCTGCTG | 540
GAATTTTTTAATGGTCATCACAGCCCCTGCTGATAGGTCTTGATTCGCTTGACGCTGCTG | 516
CTAACTATATAAAGTCACGTTAGAATGCAATTTTTCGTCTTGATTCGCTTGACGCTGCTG | 1380
GAAATCCTTGTCAATAACGTGCTTGAGTGCTCATAGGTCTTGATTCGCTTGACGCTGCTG | 634
CTATCAGCGTTGCATTACGTGGTGTCCGGTCGCTTCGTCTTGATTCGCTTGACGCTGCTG | 588
GAAGGGCAGGCCCGTAACGTGTTTATTGATAGGTAGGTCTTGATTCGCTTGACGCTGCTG | 550
CTAGAAGGAGAAATAACCGTGATATTATTATGTTTCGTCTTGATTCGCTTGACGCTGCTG | 542
GAATCGGATAGCTTCCGTGCGCAACCACATTACTAGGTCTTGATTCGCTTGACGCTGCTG | 500
GAACTATTTCGGTAACATCAAATATTTGTCAACTAGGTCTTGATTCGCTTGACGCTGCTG | 491
GAAACACGAAGCGGCCACGTGGGTCTGCGATGGTAGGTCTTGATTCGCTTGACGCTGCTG | 4080
GAATGATCTCATAATCACGTCCCATTCCCGGCTTAGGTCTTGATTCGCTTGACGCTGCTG | 557
CTATCTTTGAAAAATCACGAGATGGTGCATATTTTCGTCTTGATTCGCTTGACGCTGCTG | 1340
CTAAGATATAACACTCTGATGCAGATTTATGAATTCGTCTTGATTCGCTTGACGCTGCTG | 522
GAAGCCACAGGACATGGCGTGAAACGTGTAGGCTAGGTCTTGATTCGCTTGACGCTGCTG | 512
GAAGAAGAAAAAATGAAGGTGACGCAAAAAAGGTAGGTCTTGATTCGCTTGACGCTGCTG | 580
CTACATCATCAGAGCCACGCAACACGGTAATCATTCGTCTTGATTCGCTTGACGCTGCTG | 534
CTAGAGCGGTAATCATGAGGGTCCCTGGTAGTATTCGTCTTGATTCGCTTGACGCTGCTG | 498
GAAATCTTATAAGGGTTCGTGATGCTCCTGAATTAGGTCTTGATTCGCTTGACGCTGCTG | 515
GAATGTCGTGAATATGGCACCACGTTGGTTACTTAGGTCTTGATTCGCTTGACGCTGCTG | 637
GAATCATTCTTTAACATCACAATGCTTTATTATTAGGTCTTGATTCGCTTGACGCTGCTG | 528
GAAAGATGATGATTTGACATGATGTTTCAATCATAGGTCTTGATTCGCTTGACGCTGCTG | 522
GAAATATCTAGAACTCACGTTATGATATATTCTTAGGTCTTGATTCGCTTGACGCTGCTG | 648
GAACAAGCAGGCATTCACATGCATCAGTTGAAATAGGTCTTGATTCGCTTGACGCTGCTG | 607

Set 4
Target: Ras GTPase-activating protein-binding protein 1, full length (G3BP1, Homo sapiens, UniProt Q13283)
Chain of UniProt Q13283 (whole entry, looked up): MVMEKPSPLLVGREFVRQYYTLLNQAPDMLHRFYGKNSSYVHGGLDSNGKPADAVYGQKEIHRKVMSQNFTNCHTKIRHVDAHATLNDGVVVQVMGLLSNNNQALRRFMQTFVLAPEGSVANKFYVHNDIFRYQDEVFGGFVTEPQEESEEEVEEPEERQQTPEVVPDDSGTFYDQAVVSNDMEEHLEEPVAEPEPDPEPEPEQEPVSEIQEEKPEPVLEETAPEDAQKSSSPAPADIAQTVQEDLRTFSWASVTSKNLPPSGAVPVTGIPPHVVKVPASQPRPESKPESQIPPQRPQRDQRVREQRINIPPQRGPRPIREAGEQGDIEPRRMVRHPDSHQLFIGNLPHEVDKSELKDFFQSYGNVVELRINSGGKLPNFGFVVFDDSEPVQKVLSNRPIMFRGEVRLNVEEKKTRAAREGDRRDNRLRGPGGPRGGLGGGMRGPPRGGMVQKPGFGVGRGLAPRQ
Method: RNA Bind-n-Seq
Form: RNA
Sample: in vitro
Tested at: 200 nM
Setting: whole 134-nt RNA, ends assumed
With: 150 mM KCl
Reference: input library
Reading: higher = stronger binding
Sequence | log2 enrichment
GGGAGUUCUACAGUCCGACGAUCCUCAAGUCCUGUGCUACACAUCGUAUGUACCGAAUCGGCCGGGGCCGGCCGGGGAAAGUAUUAUGUUACGCCGUUCGGAUCUGCACUUCCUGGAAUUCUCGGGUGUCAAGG | -0.628
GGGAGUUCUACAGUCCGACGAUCUUCACCAGUUUCACUGUGAGCCUCAACGAGCUGGAGACAGGCAUGGAGAAGACCCUGCCACCCACGGACUGCCGCCUGCGCCCUGACAUCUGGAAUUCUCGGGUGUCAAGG | -0.0356
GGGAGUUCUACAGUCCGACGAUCAAGUCCUGUGCUACACAUCGUAUGUACCGAAUCGGUUUUUGGAAAAAGGUUUUUGGAAAGUAUUAUGUUACGCCGUUCGGAUCUGCACUUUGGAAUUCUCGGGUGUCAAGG | -1.45
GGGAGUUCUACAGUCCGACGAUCGGGCCCUGGUGGCAUGCGGGGAGGAAGAGGUGGCCUCAUGGAUCGUGGUGGUCCCGGUGGAAUGUUCAGAGGUGGCCGUGGUGGAGACAGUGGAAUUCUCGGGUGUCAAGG | 0.445
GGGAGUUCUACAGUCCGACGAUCUGGCCCUGGUGGCAUGCGGGGAGGAAGAGGUGGCCUCAUGGAUCGUGGUGGUCCCGGCGGAAUGUUCAGAGGUGGCCGUGGUGGAGACAGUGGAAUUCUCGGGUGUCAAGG | 0.0161
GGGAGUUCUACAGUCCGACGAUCCCUCAAGUCCUGUGCUACACAUCGUAUGUACCGAAUCGGGGAGGGAGGGAGGAAAGUAUUAUGUUACGCCGUUCGGAUCUGCACUUCCAGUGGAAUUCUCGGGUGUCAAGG | 1.42
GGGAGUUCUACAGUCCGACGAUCUCCUGUGCUACACAUCGUAUGUACCGAAUCGGGGUUUGGGGUUUUUGGGGAAAAAGGGGAAAGUAUUAUGUUACGCCGUUCGGAUCUGCAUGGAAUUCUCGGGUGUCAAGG | 0.609
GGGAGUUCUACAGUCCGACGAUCCCUCAAGUCCUGUGCUACACAUCGUAUGUACCGAAUCGGGGAGGGGAGGAGGAAAGUAUUAUGUUACGCCGUUCGGAUCUGCACUUCCAGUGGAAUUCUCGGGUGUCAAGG | 0.615
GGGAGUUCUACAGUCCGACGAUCUCCUCAAGUCCUGUGCUACACAUCGUAUGUACCGAAUCGGAGGGAGGAGGGGAAAGUAUUAUGUUACGCCGUUCGGAUCUGCACUUCCAGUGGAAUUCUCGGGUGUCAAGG | 0.544
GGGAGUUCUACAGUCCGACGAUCUCAAGUCCUGUGCUACACAUCGUAUGUACCGAAUCGGGAGGGUGGGAAAAAGGGAAAGUAUUAUGUUACGCCGUUCGGAUCUGCACUUCCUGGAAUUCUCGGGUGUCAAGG | 0.977

A few entries again (set 1):
Substitution | normalised enrichment score
SQARRSLNFGGST [N2Q] | 1.03
SNQRRSLNFGGST [A3Q] | -0.397
SNARRELNFGGST [S6E] | 1.59
SNARRSLDFGGST [N8D] | 1.54
VNARRSLNFGGST [S1V] | 0.624
SNARDSLNFGGST [R5D] | 0.486
RNARRSLNFGGST [S1R] | 0.142
LNARRSLNFGGST [S1L] | 0.409
